Measured values gathered from unrelated publications.
A part holds a random share of what one study measured.

Block 1
Target: Fragile X messenger ribonucleoprotein 1, C-terminal low-complexity region (Fmr1, Mus musculus, UniProt P35922)
Method: RNA Bind-n-Seq
Form: RNA
Medium: in vitro
Tested at: 200 nM
Setting: whole 134-nt RNA, ends assumed
Together with: 150 mM KCl
Reference: input library
Direction: higher = stronger binding
Oligonucleotide | log2 enrichment
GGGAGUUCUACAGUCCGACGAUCUGUUGCCGUGUGUCUCACCCUACCAUUUCAGAAAAAUGUUCGUUGGUGGCCUGAGCUGGGAUACUAGCAAAAAAGAUUUAAAAGACUAUUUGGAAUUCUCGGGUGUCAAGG | -2.22
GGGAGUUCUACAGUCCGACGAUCAGUCCUGUGCUACACAUCGUAUGUACCGAAUCAAAUUUUUUUAAACCCAAAUUUAAAAAAGUAUUAUGUUACGCCGUUCGGAUCUGCACUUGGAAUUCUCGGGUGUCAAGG | -0.607
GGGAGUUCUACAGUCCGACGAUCUGUGCUACACAUCGUAUGUACCGAAUCGGGGAAAAAAAGGGGUUUUUUUGGGGAAAAAGGGGAAAGUAUUAUGUUACGCCGUUCGGAUCUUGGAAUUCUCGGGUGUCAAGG | 0.184
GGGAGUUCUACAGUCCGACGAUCCUGUGCUACACAUCGUAUGUACCGAAUCGGUUUUUUUGGGUUUUUUUGGGUUUUUUUGGGGAAAGUAUUAUGUUACGCCGUUCGGAUCUGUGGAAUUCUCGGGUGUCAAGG | -0.731
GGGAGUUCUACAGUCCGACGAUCAAGUCCUGUGCUACACAUCGUAUGUACCGAAUCGGGGUGGGGUGGGGAAAAAGGGGAAAGUAUUAUGUUACGCCGUUCGGAUCUGCACUUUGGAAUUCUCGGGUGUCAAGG | 0.989
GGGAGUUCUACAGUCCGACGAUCACCAUGCAGGUAGGCAUCUUUGGGAAGUGGGGCAAGGGGGGGAUAGGGAGGGGGGUAACACUUUGGGAACAGGUGGUCCCAGGUCGUUUCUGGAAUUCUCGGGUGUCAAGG | 1.02
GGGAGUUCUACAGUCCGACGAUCCUCAAGUCCUGUGCUACACAUCGUAUGUACCGAAUCGGAAGGGAAGGAAGGGGAAAGUAUUAUGUUACGCCGUUCGGAUCUGCACUUCCAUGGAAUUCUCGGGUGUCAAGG | 0.15
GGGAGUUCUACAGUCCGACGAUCUCCUGUGCUACACAUCGUAUGUACCGAAUCGGGGCCCCCCGGGCCCCCCGGCCCCCCGGGAAAGUAUUAUGUUACGCCGUUCGGAUCUGCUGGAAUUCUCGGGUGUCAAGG | -0.0794
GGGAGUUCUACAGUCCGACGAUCAGUCCUGUGCUACACAUCGUAUGUACCGAAUCGGAAAAAAAGGAAAAAGGAAAAAGGAAAGUAUUAUGUUACGCCGUUCGGAUCUGCACUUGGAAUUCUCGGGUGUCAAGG | -0.879
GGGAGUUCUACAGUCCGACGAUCACCAUGCAGGUGGGCAUCUUUGGGAAGUAGGGCAAGGGGGGGAUAGGGAGGGGGGUAACACUUUGGGAACAGGUGGUCCCAGGUCGUUUCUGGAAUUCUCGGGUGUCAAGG | 0.688
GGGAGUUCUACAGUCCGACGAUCGUCCUGUGCUACACAUCGUAUGUACCGAAUCGGGAAAAAAAGGGAAAAAGGGUUUGGGAAAGUAUUAUGUUACGCCGUUCGGAUCUGCACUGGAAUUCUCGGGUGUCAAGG | -0.445
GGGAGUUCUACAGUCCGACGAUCUGGCCCUGGUGGCAUGCGGGGAGGAAGAGGUGGCCUCAUGGAUCGUGGUGGUCCCGGUGGAAUGUUCAGAGGUGGCCUUGGUGGAGACAGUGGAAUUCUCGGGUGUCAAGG | -0.0474
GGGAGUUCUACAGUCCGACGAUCUCAAGUCCUGUGCUACACAUCGUAUGUACCGAAUCGGAAAGGAGGAAAAAAAGGAAAGUAUUAUGUUACGCCGUUCGGAUCUGCACUUCCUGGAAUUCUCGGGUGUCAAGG | -0.524
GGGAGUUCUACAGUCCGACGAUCCACAGACAACACGCACCCACACAGACACAGAGGGAAGGGGUUAGGAUGGGGACAGGGUGCACAGCAGGGCGGGGUAGGACCCCAGCCCCUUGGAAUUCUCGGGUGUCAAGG | 1.17

Block 2
Target: Histone acetyltransferase KAT6A, winged helix 1, GST fusion (KAT6A, Homo sapiens, UniProt Q92794, residues 1-85)
Method: protein binding microarray
Form: double-stranded DNA, one strand shown
Medium: in vitro
Tested at: not given
Setting: 8-mer, flanks averaged, mean of 2 arrays, mostly near background
Reference: not given
Direction: higher = stronger binding
Residues (chain): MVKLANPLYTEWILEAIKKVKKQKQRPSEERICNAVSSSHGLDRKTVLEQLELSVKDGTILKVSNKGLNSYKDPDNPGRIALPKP
Oligonucleotide | E-score
AAACGAGT | -0.0829
ACAATTAG | -0.0716
AAAAGAGC | -0.00663
TAACAACA | -0.00987
ACCATAAG | -0.13
AAGTTACA | -0.159
AAGCAAAA | -0.252
TGAGCTCA | -0.0265
AACACCTC | -0.102
AGGGGAAT | -0.0881
CACCAAGG | -0.0726
ACTGGAGA | -0.206
AGGGTTTC | -0.0767
AGATCGAG | -0.202
CCGTCTAG | 0.213
CCAGGGGC | -0.016
AAGTGTCG | -0.0695
CATCTGCG | 0.127
GAGCCTCC | -0.0844
ATAGTTAA | 0.0119
ACGCTGCA | 0.0599
AGCCTGAC | -0.0849
GAATCCTC | -0.17
AAAAGGGC | -0.117
CCTACGAA | -0.101

Block 3
Target: Prothrombin, mature alpha-thrombin (F2, Homo sapiens, UniProt P00734)
Method: aptamer microarray, sandwich
Form: DNA with 2'F-ANA
Medium: in vitro
Tested at: 200 nM
Setting: whole 15-mer aptamer, many near background
Together with: Cy3 exosite-II aptamer, 400 nM
Direction: higher = stronger binding
Oligonucleotide: GGTTGGTGTGGTTGG
Modification | mean fluorescence intensity [a.u.]
2'F-ANA at 2 3 4 5 6 8 9 11 | 77.4
2'F-ANA at 3 4 5 8 9 13 15 | 65.6
2'F-ANA at 1 2 4 5 6 7 9 11 13 14 15 | 58.9
2'F-ANA at 1 2 3 4 8 9 12 15 | 437
2'F-ANA at 1 5 8 12 14 15 | 50.5
2'F-ANA at 6 9 10 11 15 | 130
2'F-ANA at 5 6 7 9 10 11 13 14 | 47.8
2'F-ANA at 1 2 3 4 5 7 9 10 12 13 15 | 49
2'F-ANA at 2 5 7 9 10 | 51
2'F-ANA at 4 8 9 11 12 13 15 | 295
2'F-ANA at 2 3 4 5 6 8 11 15 | 75.6
2'F-ANA at 1 2 3 4 5 7 8 11 12 13 14 | 52
2'F-ANA at 1 2 3 4 5 6 10 11 12 14 | 57
2'F-ANA at 2 3 5 7 8 10 12 13 15 | 55.4
2'F-ANA at 1 6 8 10 11 12 14 15 | 51.7
2'F-ANA at 1 3 5 7 8 9 13 15 | 56.6
2'F-ANA at 1 2 3 4 9 12 13 | 234
2'F-ANA at 3 7 9 12 13 14 | 653
2'F-ANA at 2 3 5 8 9 10 12 13 14 | 54.1
2'F-ANA at 1 2 6 7 10 11 13 15 | 51.3

Block 4
Target: RNA binding protein fox-1 homolog 2, RRM domain, GST-SBP tag (RBFOX2, Homo sapiens, UniProt O43251-10, residues 100-194)
Method: RNA Bind-n-Seq
Form: RNA
Medium: in vitro
Tested at: 365 nM
Setting: natural RNA segment, single round, ends assumed
Reference: no-protein control
Direction: higher = stronger binding
Target sequence (chain): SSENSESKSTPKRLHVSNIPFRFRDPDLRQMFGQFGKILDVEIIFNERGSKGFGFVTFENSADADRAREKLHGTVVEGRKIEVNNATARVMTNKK
Oligonucleotide | RBNS enrichment (R)
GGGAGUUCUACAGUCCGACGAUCGGAUACAGGAGGUGGCUUCUUCAGGUUCCAUAUCCCCAAUGGUGUGAAUCACAGCUAAGAUCACCUCCACUGAUUCUUGGGCACCUCCCUUAAGACUGUUUUUAAAUGAAUGGAAUUCUCGGGUGCCAA | 0.655
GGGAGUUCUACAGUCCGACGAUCUAUGUAAGAGUGAUAUAAAACCUACCUCUGAGGUCAUUUAAUAAUAAGCACAGACAUGUGGAAAGUGCCUGACACAAAGCAGGUGCUCAAUAAAAGAGAGCUAUUGAAGUUGGAAUUCUCGGGUGCCAA | 0.428
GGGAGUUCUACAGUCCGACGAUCGAUGUUUUUUCUUUCCUUUUCUUUUCAAAUCCUUUAAUGAUAGGAAGACAAGUGAAACUGGGUGCAAGCUAAAAUUUUUAAAUGGUGUGGAGACUCGAAUGAUACCAAGAUGGAAUUCUCGGGUGCCAA | 0.585
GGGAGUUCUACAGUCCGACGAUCAGGGGCUUUUAGUCGUCUCAGUAUCUUUUUUGCAUUCAGGUAUUAUAGCGUUUCCAACAAAUUGAGAAAUUACUUAUUUGGUGUAAAAUGACGAGAGAGCUUUAGAAUUUUGGAAUUCUCGGGUGCCAA | 0.746
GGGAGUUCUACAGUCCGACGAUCUAGAACAUCAGGAUGUUCUUGUAUUGGAUAUAGUAUCUAGUAUUCAAAAAUGCCUGCAUCUCUUAUUUAUUGUAAGUUUUUAAAUGUAUAAAUUGUCUUAUAUUUCUUAAUGGAAUUCUCGGGUGCCAA | 0.851
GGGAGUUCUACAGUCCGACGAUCGGAUACAAGAUGCUGAGAGGGCUGCAGGGCCAUUCCAUCAAGCCCCAGGGUGAAAGGGCUGGCAUGGCAUCGCUCAUUUUAUUGCUCUGCAGGUAAACUGUAUAGGUAUAUGGAAUUCUCGGGUGCCAA | 0.516
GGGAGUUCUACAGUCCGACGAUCAUCUUCAGACGGUUCCUUUUGAUCAGCCCCUGGAAGAUGGGUCCCUCCUAAUCUAUGUCAUAGAAUUUUGCAUGCUGUAUGAUUGGCUUUGUCUUCUAUCUCCCACCAAAUGGAAUUCUCGGGUGCCAA | 11.6
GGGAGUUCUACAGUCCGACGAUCCCUGAUUGACAGGAAUUUGCUGUCCUUGACACUCCACACAUUGUGUUCCUCACGUGUGGGACAGGACACAGAGCUGACUGAGCGUGGGACACUCCACAGCCUUCUCAUGAUGGAAUUCUCGGGUGCCAA | 0.337
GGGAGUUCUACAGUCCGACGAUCUUUAAAAUACCUUCACAAGUGAACAUUACACACAGAAGUUCAUUUGGUUUUCCUUUGUUUUAUGGUGCAUAUAGCAAUAAAGACCCCCCUCCACCCUGCAACCCCCAUCCUGGAAUUCUCGGGUGCCAA | 0.855
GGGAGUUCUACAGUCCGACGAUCCACUCUGGCCCUGGAGCCGCCUUUGUUAACAGCAACAAGAAUGCUGCAGUGCUACAACGUGCUGGAAGAUGUGUCAGAUUUGCUUUAAAGAUGAGAAUCUGGUGUUUCUGUGGAAUUCUCGGGUGCCAA | 0.401
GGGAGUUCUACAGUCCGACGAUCCCAGGGUGAGCGAGGGGUCCAGGGCCUAGAGGUGCUUCCUGGGGGCGGGGGAAUGCAGCCAGUGUCCCCCUCCCCUCUUCCACCCCAGCUCCAGCCCUGGUCUUGUCUUUUGGAAUUCUCGGGUGCCAA | 0.578
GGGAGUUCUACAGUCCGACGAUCUAAUGUCAUGUUGCUUGUCGCUUUCUCAGUGUGUGUGUGUGGUCCAUGCCCACUGCUGGUGCCAGGGUGGGUGUCCAUGUGCACCCGGCCUGGAUGCCAGCUGUGUCCUUUGGAAUUCUCGGGUGCCAA | 0.336

Block 5
Organism: Saccharomyces cerevisiae
Observed: binding
Method: competitive growth deep sequencing
Form: peptide
Strain: cyclin E1-Cln2 fusion strain
Tested at: concentration not given
Setting: peptide tiling library
Direction: direction not given
Molecule | growth enrichment score
PAKRRLELGE | 0.398
LRRQLSFSED | 0.289
RKLHFEDEVT | 2.18
FREFEVEKQTAEETGL | 1.14
SSEVARHLLFQSHM | -0.194
IVLICAKRSLCAAFSV | -0.0177
GQLVIPLDELTLDTSF | 1.33
DTERAHSTLDEDLERW | -1.64
PARRRLRLSVDEVSSP | 0.101
NARRSLNFGGSTGT | 0.22
AIRKMREDRWAVIAKM | 0.0796
PLRKAKRARLCSSSSS | 0.529

For quick reference, copied from above (block 2):
Oligonucleotide | E-score
TGAGCTCA | -0.0265
AACACCTC | -0.102
AGGGGAAT | -0.0881
CACCAAGG | -0.0726
ACTGGAGA | -0.206
